Published values gathered from unrelated publications.
Organism: Escherichia coli

SMILES | test | system | conditions | MIC
CO/N=C(\C(=O)N[C@@H]1C(=O)N2C(C(=O)O)=C(COC(C)=O)CS[C@H]12)c1csc(N)n1 | broth microdilution | ATCC 25922 | ambient air | 0.06 µg/mL
C=C/C=C(\C)CC[C@@H]1C[C@@H](O)CC(=O)O1 | broth microdilution | KCTC 2571 |  | 128 µg/mL
COc1c(NC(=O)c2ccc(NC(=O)c3ccc(NC(=O)[C@H](CC#N)NC(=O)c4ccc(NC(=O)/C(C)=C/c5ccc(O)cc5)cc4)cc3)c(OC)c2O)ccc(C(=O)O)c1O |  | BW25113 wild type |  | < 0.03 µg/mL
N=C(N)c1ccc(OCCSCCOc2ccc(C(=N)N)cc2)cc1 |  | BW25113 | compound alone, rifampicin checkerboard | > 200 µg/mL
CC(C)Oc1c(NC(=O)c2ccc(NC(=O)[C@H](CC(N)=O)NC(=O)c3ccc(NC(=O)c4ccc(C#N)cc4)cc3)cc2)ccc(C(=O)N/N=C/c2ccc(C(=O)O)s2)c1O |  | BW25113 | 18 h, 37 °C, irradiated at 365 nm, photostationary state | 0.03 µg/mL
O=C(Cc1ccccc1)N[C@@H]1C(=O)N2C(C(=O)O)=C(CSc3cccc4cccnc34)C[S+]([O-])[C@H]12 (some centres unmarked) |  | 25922 |  | > 128 µg/mL
N=C(N)c1ccccc1OCc1cccc(COc2ccccc2C(=N)N)c1 |  | BW25113 | compound alone, rifampicin checkerboard | > 200 µg/mL
CCO/N=C(\C(=O)N[C@@H]1C(=O)N2C(C(=O)[O-])=C(Sc3nc(-c4cc[n+](C)cc4)cs3)CS[C@H]12)c1nsc(NP(=O)(O)O)n1 | broth microdilution |  | 24 h, 37 °C, clinical isolate | > 400 µM
CO/N=C(\C(=O)N[C@@H]1C(=O)N2C(C(=O)O)=C(CSc3nc(=O)c(O)nn3C)CS[C@H]12)c1csc(N)n1 | broth microdilution | G92 | 18 h | 128 µg/mL
N=C(N)c1ccc(OCCCCCCCOc2ccc(C(=N)N)cc2)cc1 |  | BW25113 | compound alone | 200 µg/mL
CNC(C)C1CCC(N)C(OC2C(N)CC(N)C(OC3OCC(C)(O)C(NC)C3O)C2O)O1 (centres unmarked) |  | ATCC 25922 |  | 1.3 µM
NC[C@H]1O[C@H](O[C@H]2[C@H](O)[C@@H](O[C@H]3O[C@H](CO)[C@@H](O)[C@H](N)[C@H]3O)[C@H](N)C[C@@H]2N)[C@H](N)C[C@@H]1O | broth microdilution | ATCC 25922 | ambient air | 0.5 µg/mL
N=C(N)c1ccc(OCc2cccc(COc3ccc(C(=N)N)cc3)c2)cc1 |  | mcr-3 polymyxin-resistant | compound alone | > 200 µg/mL
C[C@@H](O)[C@H]1C(=O)N2C(C(=O)O)=C(S[C@@H]3CN[C@H](C(=O)N(C)C)C3)[C@H](C)[C@H]12 | broth microdilution | G92 | 18 h | 0.002 µg/mL
NC[C@H]1O[C@H](O[C@H]2[C@H](O)[C@@H](O[C@H]3O[C@H](CO)[C@@H](O)[C@H](N)[C@H]3O)[C@H](N)C[C@@H]2N)[C@H](O)[C@@H](O)[C@@H]1O | broth microdilution | ATCC 25922 | 16 h, 37 °C, cation-adjusted Mueller-Hinton broth | 4 µg/mL
C=C[C@]1(C)C[C@@H](OC(=O)CO)[C@]2(C)[C@H](C)CC[C@]3(CCC(=O)[C@H]32)[C@@H](C)[C@@H]1O |  | ATCC 25922 |  | > 40 µM

SMILES | test | system | conditions | MIC
CO/N=C(\C(=O)N[C@@H]1C(=O)N2C(C(=O)O)=C(COC(C)=O)CS[C@H]12)c1csc(N)n1 |  | ATCC 25922, Mueller Hinton broth | 37 °C | < 0.5 µg/mL
CCC(CC)c1cc(CCN2CCCN(Cc3ccc(C(F)(F)F)cc3)CC2)nc(-c2ccncc2)n1 | broth microdilution | ATCC 25922 |  | > 64 µg/mL
CCCNC[C@@]1(O)[C@@H](C)O[C@H](O[C@H]2[C@H](C)[C@@H](O[C@H]3O[C@@H](C)C[C@@H](N(C)C)[C@@H]3O)[C@](C)(O)C[C@@H](C)CN[C@H](C)[C@@H](O)[C@](C)(O)[C@@H](CC)OC(=O)[C@@H]2C)C[C@]1(C)OC (stereo in doubt) |  | ATCC 25922 |  | 5 µM
CC1(C)S[C@@H]2[C@H](NC(=O)[C@H](N)c3ccc(O)cc3)C(=O)N2[C@H]1C(=O)O | broth microdilution | MTCC 405 |  | 10 µg/mL
C[C@@H]1O[C@@H]1P(=O)(O)O |  | ATCC 25922 |  | 80 µM
CC(C)Oc1c(NC(=O)c2ccc(NC(=O)[C@H](CC(N)=O)NC(=O)c3ccc(/N=N/c4ccc(C#N)cc4)cc3)cc2)ccc(C(=O)Nc2ccc(C(=O)O)cc2)c1O |  | BW25113 | 18 h, 37 °C, irradiated at 365 nm, photostationary state | 0.45 µg/mL
CO[C@H]1/C=C/O[C@@]2(C)Oc3c(C)c(O)c4c(c3C2=O)C(=O)C(N2CCN(c3cc(C)nc5ccccc35)CC2)=C(NC(=O)/C(C)=C/C=C/[C@H](C)[C@H](O)[C@@H](C)[C@@H](O)[C@@H](C)[C@H](OC(C)=O)[C@H]1C)C4=O |  | ATCC 25922 |  | 20 µM
N=C(N)c1ccc(OCc2cc(Br)cc(COc3ccc(C(=N)N)cc3)c2)cc1 |  | 552100 | compound alone | 100 µg/mL
CO[C@H]1/C=C/O[C@@]2(C)Oc3c(C)c(O)c4c(O)c(c(/C=N/Nc5ccc(OC(F)(F)F)cc5)c(O)c4c3C2=O)NC(=O)/C(C)=C\C=C\[C@H](C)[C@H](O)[C@@H](C)[C@@H](O)[C@H](C)[C@H](OC(C)=O)[C@@H]1C |  | ATCC 25922 |  | 20 µM
c1ccc(OCCn2c(CNCC34CC5CC(CC(C5)C3)C4)nc3ccccc32)cc1 |  | ATCC 25922 |  | > 128 µg/mL
CO[C@H]1/C=C/O[C@@]2(C)Oc3c(C)c(O)c4c(O)c(c(/C=N/N5CCN(C)CC5)c(O)c4c3C2=O)NC(=O)/C(C)=C\C=C\[C@H](C)[C@H](O)[C@@H](C)[C@@H](O)[C@@H](C)[C@H](OC(C)=O)[C@@H]1C | broth microdilution OD600 | Mueller-Hinton broth | 24 h, 37 °C, together with: 6 µM NH4Cl | 16 µM
CC[C@]1(C)C[C@@H](OC(=O)CSc2nnc(N)[nH]2)[C@]2(C)[C@H](C)CC[C@]3(CCC(=O)[C@H]32)[C@@H](C)[C@@H]1O |  | ATCC 25922 |  | > 40 µM
Cc1c(CN(C)C(=O)/C=C/c2cnc3c(c2)CC(NC(=O)OC(C)(C)C)C(=O)N3)oc2ccccc12 (centres unmarked) | broth microdilution | AR-0493 |  | > 32 µg/mL
Cc1cc(-c2cn[nH]c2-c2cccc(OCc3cccc(C#N)c3)c2)cc(C)n1 | broth microdilution | AR-0349 colistin-resistant |  | 1 µg/mL
CO[C@H]1/C=C/O[C@@]2(C)Oc3c(C)c(O)c4c(O)c(c(/C=N/N5CCN(C)CC5)c(O)c4c3C2=O)NC(=O)/C(C)=C\C=C\[C@H](C)[C@H](O)[C@@H](C)[C@@H](O)[C@@H](C)[C@H](OC(C)=O)[C@@H]1C | broth microdilution |  | 18 h | 8 µg/mL
CC1(C)S[C@@H]2[C@H](NC(=O)[C@H](N)c3ccccc3)C(=O)N2[C@H]1C(=O)O | broth microdilution | ATCC 10546 |  | 2 µg/mL

Repeated from above:
SMILES | test | system | conditions | MIC
CC(C)Oc1c(NC(=O)c2ccc(NC(=O)[C@H](CC(N)=O)NC(=O)c3ccc(/N=N/c4ccc(C#N)cc4)cc3)cc2)ccc(C(=O)Nc2ccc(C(=O)O)cc2)c1O |  | BW25113 | 18 h, 37 °C, irradiated at 365 nm, photostationary state | 0.45 µg/mL
CO[C@H]1/C=C/O[C@@]2(C)Oc3c(C)c(O)c4c(c3C2=O)C(=O)C(N2CCN(c3cc(C)nc5ccccc35)CC2)=C(NC(=O)/C(C)=C/C=C/[C@H](C)[C@H](O)[C@@H](C)[C@@H](O)[C@@H](C)[C@H](OC(C)=O)[C@H]1C)C4=O |  | ATCC 25922 |  | 20 µM
